{"data": "Experimental data from different studies", "note": "Each numbered part is a random draw from the data of one study; scales do not carry over between parts."}
{"data": "Study 1", "target": "Interferon regulatory factor 3, full length, phosphomimetic (IRF3, Homo sapiens, UniProt Q14653, residues 1-427, S386D/S396D/S398D/S402D/T404D/S405D)", "method": "protein-binding microarray", "form": "double-stranded DNA, one strand shown", "matrix": "in vitro", "tested at": "2540 nM top", "setting": "60-bp whole probe", "together with": "salmon DNA 0.4 mg/ml", "baseline": "random background probes", "direction": "higher = stronger binding", "all sequences stand within": "GCCTAGCAC … GTCTTGATTCGCTTGACGCTGCTG", "Target sequence (chain)": "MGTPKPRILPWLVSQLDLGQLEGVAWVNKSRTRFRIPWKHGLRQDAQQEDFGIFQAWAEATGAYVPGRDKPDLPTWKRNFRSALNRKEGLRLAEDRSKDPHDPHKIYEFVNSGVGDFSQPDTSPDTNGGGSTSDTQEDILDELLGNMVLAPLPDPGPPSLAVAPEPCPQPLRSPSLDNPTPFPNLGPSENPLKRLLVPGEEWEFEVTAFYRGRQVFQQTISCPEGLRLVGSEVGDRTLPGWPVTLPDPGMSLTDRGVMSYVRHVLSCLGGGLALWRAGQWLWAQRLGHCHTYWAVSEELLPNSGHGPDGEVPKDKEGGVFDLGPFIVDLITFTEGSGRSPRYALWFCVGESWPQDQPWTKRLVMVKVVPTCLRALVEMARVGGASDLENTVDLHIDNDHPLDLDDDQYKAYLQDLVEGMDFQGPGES"}
{"Oligonucleotide": "TTAGGACTGCTTTTCCTTAAGTGCTAG", "fitted relative affinity": "0.485 z-score"}
{"Oligonucleotide": "GACGATATTAGTATCGAGACGTGCTAG", "fitted relative affinity": "0.7 z-score"}
{"Oligonucleotide": "TCAGCCATCAATATCTGACTGTGCTAG", "fitted relative affinity": "-0.443 z-score"}
{"Oligonucleotide": "TTAGGACTGCTTCTCCTTAAGTGCTAG", "fitted relative affinity": "0.116 z-score"}
{"Oligonucleotide": "TTAGGTTCAGGTTTCGGTTAGTGCTAG", "fitted relative affinity": "4.2 z-score"}
{"Oligonucleotide": "TTAGGTATCGGCTTTCGGTTAGTGCTA", "fitted relative affinity": "1.77 z-score"}
{"Oligonucleotide": "TTAGGACTGGACTATCGGTTAGTGCTA", "fitted relative affinity": "-0.293 z-score"}
{"Oligonucleotide": "TCAAGTTTTTATTTTCTACTGTGCTAG", "fitted relative affinity": "1.99 z-score"}
{"Oligonucleotide": "TTAGATTTCATTCTCGATTAGTGCTAG", "fitted relative affinity": "3.84 z-score"}
{"Oligonucleotide": "TTAGATATCGGGGTTCGATTAGTGCTA", "fitted relative affinity": "-0.12 z-score"}
{"Oligonucleotide": "TCATCTTTTATGCTCTTACTGTGCTAG", "fitted relative affinity": "1.07 z-score"}
{"Oligonucleotide": "TCATATCTAAGATTCTAACTGTGCTAG", "fitted relative affinity": "0.915 z-score"}
{"Oligonucleotide": "TTCACTTTCTTTACTTCACTGTGCTAG", "fitted relative affinity": "3.07 z-score"}
{"Oligonucleotide": "TACGGACTGGGTCTCGGGACGTGCTAG", "fitted relative affinity": "-0.764 z-score"}
{"Oligonucleotide": "GACGAGATCGGGTATCGAGACGTGCTA", "fitted relative affinity": "0.0904 z-score"}
{"Oligonucleotide": "GACGAACTGATTCTCGAGACGTGCTAG", "fitted relative affinity": "0.253 z-score"}
{"Oligonucleotide": "GACAGACTGGGGTATCGGGACGTGCTA", "fitted relative affinity": "-0.429 z-score"}
{"Oligonucleotide": "GACGAGCTGAGACTGGAGACGTGCTAG", "fitted relative affinity": "-0.845 z-score"}
{"Oligonucleotide": "TTAGAATTGAGTCTCGATTAGTGCTAG", "fitted relative affinity": "-0.237 z-score"}
{"Oligonucleotide": "TCACATATACACATCTTACTGTGCTAG", "fitted relative affinity": "0.931 z-score"}
{"Oligonucleotide": "GTGTTACTAAAATTTCATGAAGTGCTA", "fitted relative affinity": "0.173 z-score"}
{"Oligonucleotide": "TTAGGTTTCCTTCTTCTTTAGTGCTAG", "fitted relative affinity": "9.74 z-score"}
{"Oligonucleotide": "GACGGTTTCCTTATCCTGACGTGCTAG", "fitted relative affinity": "7.57 z-score"}
{"Oligonucleotide": "TGAGATTTCAGACTGGATTAGTGCTAG", "fitted relative affinity": "0.2 z-score"}
{"data": "Study 2", "target": "RNA binding protein fox-1 homolog 2, RRM domain, GST-SBP tag (RBFOX2, Homo sapiens, UniProt O43251-10, residues 100-194)", "method": "RNA Bind-n-Seq", "form": "RNA", "matrix": "in vitro", "tested at": "365 nM", "setting": "natural RNA segment, single round, ends assumed", "baseline": "no-protein control", "direction": "higher = stronger binding", "all sequences stand within": "GGGAGUUCUACAGUCCGACGAUC … UGGAAUUCUCGGGUGCCAA", "Construct (chain)": "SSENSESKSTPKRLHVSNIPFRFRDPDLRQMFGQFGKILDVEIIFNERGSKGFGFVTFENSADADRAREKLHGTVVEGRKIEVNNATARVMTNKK"}
{"Oligonucleotide": "CAGCCGUGACAACACUCCUGUCAUAUUGGAGUCCAAAACUUGAAUUCUGGGUUGAAUUUUUUAAAAAUCAGGUACCACUUGAUUUCAUAUGGGAAAUUGAAGCAGGAAAU", "RBNS enrichment (R)": 0.395}
{"Oligonucleotide": "UUCAAGAUGUUAUAUUAAAGAAAAACUUUAAAAAUUAUUAUAUAUUUAUAGCAAAGUUAUCUUAAAUAUGAAUUCUGUUGUAAUUUAAUGACUUUUGAAUUACAGAGAUA", "RBNS enrichment (R)": 1.08}
{"Oligonucleotide": "GGGGAUCGCCAUAUGGACCACCUGGUUGACAGACGGCUUCUUGCUUGCCUGGGCCUUCUGCCUUAUACUUUGGGAUAAAUGGGGUGUAGGGGAUAUAUUCACUACUUUGG", "RBNS enrichment (R)": 0.927}
{"Oligonucleotide": "UACAUAUCUACUGACUGAUGACAAGGGAAUUUCAUUAGGAAGAAGGUAAAGAAACAUCGUUGAGUAGCCUACCUUGAUUUCUGUCAAGUUCAUAACCAGCUUCAUAUUUU", "RBNS enrichment (R)": 0.508}
{"Oligonucleotide": "GUGGGCUUCUUCAUCUUUACGUUCUAGACUCCAAUUUUGUCCAAUGUAUAUAGAAUCUCCAUAUUAAAGAAAUAUUCAUAAUCAGAAAGCUUGAAUAUUGUUUUUGCACC", "RBNS enrichment (R)": 0.594}
{"Oligonucleotide": "GCGCCAUCAUGGGCUGAUUUUUAUUACCAGGUCCCCCAGAAGCAGGUGGGAGGCUCUGCUUCCUGCUGCCGCUCUGCAGCCUGGACCUGUGGACCCUGGUUGUAAAGAGU", "RBNS enrichment (R)": 0.184}
{"Oligonucleotide": "GAUUUUAAGCAUUUUGUAAAUGUAUAAACUCACCUCUGGUAACAGUGGCCCAGACGCUGCUUUGUGCUAAAAGCAUGGGAAAUGUAAAGGCAGUCUUUCUCUGGGAAAUG", "RBNS enrichment (R)": 9.53}
{"Oligonucleotide": "AGAUCGCACUGGAAGAUUUUAUAAAAGAAUUUUUGUGGGUCGGGGGGACAGUAAACUUCCUGGGCCACGUGGGUCCUUCAGGAGUUUUUCAGGCAAGUUUUUCCUCUGUU", "RBNS enrichment (R)": 0.549}
{"Oligonucleotide": "AAAAAAGUAAAAUAAGUUAUAGUGGUCAGGGAAUCUCUUGACGAAAGCUAACUCUUAUUUUUCAGGGGGCACAUGUUUUGUUUUGUUAUGUUUUGUUGUACAAUGAAGGA", "RBNS enrichment (R)": 0.443}
{"Oligonucleotide": "UUAUUUUUCAUUGUGUUUUGUGACCUCAGCAGGGUGGGGGUCUUCCUCCUUACUCUAAGCUAAAUCUAGGUGAGGUUUCCCCUUAGGGAGCCCAGCUAUUUACAAAGUAC", "RBNS enrichment (R)": 0.373}
{"Oligonucleotide": "AUUUUGAGCCAUUAAUGAUUUUGGGUUUUUUAAUCCAGAAGGUAUAUAAAAGCCUUUUCAGAGUUUUCAUCUGAUUUGUCCUGAGGAUCUAGUUCUAUCAAAUACCUUAU", "RBNS enrichment (R)": 0.493}
{"Oligonucleotide": "ACAUAAGUUAUUGUUCACAUUAAAGAAUCAUGUUCCCUGUGUACAUUUUAAGCAAAGGAAAAGUCUUGGGAUUGUAUGGGAAUAAAACUUGUUUGAAAAUUUGGAAUAGU", "RBNS enrichment (R)": 0.742}
{"data": "Study 3", "target": "Ras GTPase-activating protein-binding protein 1, RRM domain (G3BP1, Homo sapiens, UniProt Q13283)", "method": "RNA Bind-n-Seq", "form": "RNA", "matrix": "in vitro", "tested at": "1 µM", "setting": "whole 134-nt RNA, ends assumed", "together with": "150 mM KCl", "baseline": "input library", "direction": "higher = stronger binding", "all sequences stand within": "GGGAGUUCUACAGUCCGACGAUC … UGGAAUUCUCGGGUGUCAAGG", "UniProt Q13283, sequence (whole entry, looked up)": "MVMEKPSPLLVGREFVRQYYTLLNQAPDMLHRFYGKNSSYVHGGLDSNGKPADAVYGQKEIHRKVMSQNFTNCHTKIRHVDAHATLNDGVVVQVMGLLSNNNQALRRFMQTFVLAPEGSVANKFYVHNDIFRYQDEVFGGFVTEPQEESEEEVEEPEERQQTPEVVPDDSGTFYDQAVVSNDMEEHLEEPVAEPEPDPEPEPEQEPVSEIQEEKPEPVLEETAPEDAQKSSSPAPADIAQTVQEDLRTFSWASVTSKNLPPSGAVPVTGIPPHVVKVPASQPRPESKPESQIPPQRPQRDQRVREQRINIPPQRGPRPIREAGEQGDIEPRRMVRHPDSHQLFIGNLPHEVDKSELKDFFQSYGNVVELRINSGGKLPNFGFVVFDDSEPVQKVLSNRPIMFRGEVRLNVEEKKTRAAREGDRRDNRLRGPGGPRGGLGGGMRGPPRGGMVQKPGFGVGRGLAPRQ"}
{"Oligonucleotide": "AGUCCUGUGCUACACAUCGUAUGUACCGAAUCAAACCCCCCCAAACCCAAACCCAAAAAAGUAUUAUGUUACGCCGUUCGGAUCUGCACU", "log2 enrichment": -0.248}
{"Oligonucleotide": "GCAGGAAGAAAAAACAAAUGGAAAUGCUUCGGAUAGUGGCAGGGGUGGGGGUUGCUAAGGAAAGGGUGGGAUGGGAGUGGGUAAAGAGUU", "log2 enrichment": 1.5}
{"Oligonucleotide": "AAGUCCUGUGCUACACAUCGUAUGUACCGAAUCGGUUUUGGGUUUUGGGGUUUUGGGAAAGUAUUAUGUUACGCCGUUCGGAUCUGCACU", "log2 enrichment": -0.163}
{"Oligonucleotide": "ACCAUGCAGGUGGGCAUCUUUGGGAAGUGGGGCAAGGGGGGGAUAGGGAGGGGGGUAACACUUUGGGAACAAAUGGUCCCAGGUCGUUUC", "log2 enrichment": -0.398}
{"Oligonucleotide": "CUCAAGUCCUGUGCUACACAUCGUAUGUACCGAAUCGGUUGGGUUGGGUUGGGGAAAGUAUUAUGUUACGCCGUUCGGAUCUGCACUUCC", "log2 enrichment": -0.0109}
{"Oligonucleotide": "AGUCCUGUGCUACACAUCGUAUGUACCGAAUCGGGAAAGGGAAAAAAAGGGUUUGGGAAAGUAUUAUGUUACGCCGUUCGGAUCUGCACU", "log2 enrichment": 0.247}
{"Oligonucleotide": "UAACUUUAGAGGAGGAUCUGAUGGAUAUGGCAGUGGACGUGGAUUUGGGGAUAGCUAUAAUGGGUAUGGAGGAGGACCUGGAGGUGGCAA", "log2 enrichment": -0.256}
{"Oligonucleotide": "UGUCUGGUGACAAGGAAGAGGAUGCUCCUCAUAGAGAAGAUUACUUUGAGCCCAUUUCUCCUGAUCGGAAUUCUGUUCCCCAGGAAGGGC", "log2 enrichment": -0.351}
{"Oligonucleotide": "CCUCAAGUCCUGUGCUACACAUCGUAUGUACCGAAUCGGGAGGGAGGAGGGGAAAGUAUUAUGUUACGCCGUUCGGAUCUGCACUUCCAG", "log2 enrichment": 0.29}
{"Oligonucleotide": "CUCAAGUCCUGUGCUACACAUCGUAUGUACCGAAUCGGAAGGGAAGGAAGGGGAAAGUAUUAUGUUACGCCGUUCGGAUCUGCACUUCCA", "log2 enrichment": -0.0501}
{"Oligonucleotide": "UCAAGUCCUGUGCUACACAUCGUAUGUACCGAAUCGGAGGAAAGGUUUUUUUGGAAAGUAUUAUGUUACGCCGUUCGGAUCUGCACUUCC", "log2 enrichment": -0.309}
{"Oligonucleotide": "GUCCUGUGCUACACAUCGUAUGUACCGAAUCGGGGUUUUUGGGGUGGGGAAAAAGGGGAAAGUAUUAUGUUACGCCGUUCGGAUCUGCAC", "log2 enrichment": 0.981}
{"Oligonucleotide": "UCAAGUCCUGUGCUACACAUCGUAUGUACCGAAUCGGAAAGGAGGAAAAAAAGGAAAGUAUUAUGUUACGCCGUUCGGAUCUGCACUUCC", "log2 enrichment": -0.221}
{"Oligonucleotide": "AGUCCUGUGCUACACAUCGUAUGUACCGAAUCGGGGCCCCGGGGCCCCGGCCCCGGGGAAAGUAUUAUGUUACGCCGUUCGGAUCUGCAC", "log2 enrichment": -1.28}
{"data": "Study 4", "target": "Sal-like protein 4, full length isoform A (SALL4, Homo sapiens, UniProt Q9UJQ4, residues 1-1053)", "method": "universal PBM", "form": "double-stranded DNA, one strand shown", "matrix": "in vitro", "tested at": "600 nM", "setting": "8-mer, flanks averaged, mean of replicates", "direction": "higher = stronger binding", "UniProt Q9UJQ4, sequence (whole entry, looked up)": "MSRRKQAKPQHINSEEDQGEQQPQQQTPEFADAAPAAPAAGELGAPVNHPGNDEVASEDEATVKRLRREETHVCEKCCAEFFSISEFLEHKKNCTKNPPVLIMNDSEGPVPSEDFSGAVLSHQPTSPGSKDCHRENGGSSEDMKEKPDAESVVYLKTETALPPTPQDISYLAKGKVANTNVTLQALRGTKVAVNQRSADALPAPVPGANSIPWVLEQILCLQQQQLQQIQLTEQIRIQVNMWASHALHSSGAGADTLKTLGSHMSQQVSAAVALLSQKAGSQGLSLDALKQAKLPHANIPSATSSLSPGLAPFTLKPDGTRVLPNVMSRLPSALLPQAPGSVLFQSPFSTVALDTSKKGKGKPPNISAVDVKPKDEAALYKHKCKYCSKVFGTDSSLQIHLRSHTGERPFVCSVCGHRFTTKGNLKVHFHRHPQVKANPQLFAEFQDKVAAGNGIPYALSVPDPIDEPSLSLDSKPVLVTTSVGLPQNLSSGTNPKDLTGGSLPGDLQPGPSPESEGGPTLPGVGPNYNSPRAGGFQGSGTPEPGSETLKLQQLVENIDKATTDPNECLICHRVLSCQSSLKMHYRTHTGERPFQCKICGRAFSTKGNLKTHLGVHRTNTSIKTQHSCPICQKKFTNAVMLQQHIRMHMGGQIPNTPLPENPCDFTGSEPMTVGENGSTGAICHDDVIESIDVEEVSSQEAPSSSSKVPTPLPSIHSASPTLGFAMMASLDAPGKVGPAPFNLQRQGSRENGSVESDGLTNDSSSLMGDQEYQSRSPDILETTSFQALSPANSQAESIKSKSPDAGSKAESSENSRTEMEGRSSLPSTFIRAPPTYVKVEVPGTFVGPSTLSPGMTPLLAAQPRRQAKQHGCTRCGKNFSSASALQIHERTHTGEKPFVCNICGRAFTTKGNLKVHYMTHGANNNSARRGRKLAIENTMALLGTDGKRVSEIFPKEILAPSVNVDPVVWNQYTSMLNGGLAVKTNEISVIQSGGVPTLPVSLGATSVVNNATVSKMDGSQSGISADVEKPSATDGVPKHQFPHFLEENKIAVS"}
{"Oligonucleotide": "ACAACTGG", "E-score": -0.108}
{"Oligonucleotide": "CAAGCGCC", "E-score": -0.237}
{"Oligonucleotide": "GTGTCGTA", "E-score": 0.0016}
{"Oligonucleotide": "ATTACTCC", "E-score": 0.0668}
{"Oligonucleotide": "ATGCCGAA", "E-score": 0.0103}
{"Oligonucleotide": "CACGAGGA", "E-score": -0.129}
{"Oligonucleotide": "GACCAGTC", "E-score": -0.309}
{"Oligonucleotide": "ATCAGCAC", "E-score": 0.0558}
{"Oligonucleotide": "CGAACGCA", "E-score": 0.0575}
{"Oligonucleotide": "AACATCTC", "E-score": 0.107}
{"Oligonucleotide": "CCTGCCAA", "E-score": -0.131}
{"Oligonucleotide": "AACAAGCC", "E-score": -0.0913}
{"Oligonucleotide": "CACGCTAG", "E-score": -0.0871}
{"Oligonucleotide": "AAACGGAA", "E-score": 0.133}
{"Oligonucleotide": "GAATCCAA", "E-score": -0.0135}
{"Oligonucleotide": "CAAGTGGC", "E-score": -0.0167}
{"Oligonucleotide": "AACAACCA", "E-score": 0.108}
{"note": "Repeated from above (study 4):"}
{"Oligonucleotide": "ACAACTGG", "E-score": -0.108}
{"Oligonucleotide": "CAAGCGCC", "E-score": -0.237}
{"Oligonucleotide": "GTGTCGTA", "E-score": 0.0016}
{"Oligonucleotide": "ATTACTCC", "E-score": 0.0668}
{"Oligonucleotide": "ATGCCGAA", "E-score": 0.0103}
{"Oligonucleotide": "CACGAGGA", "E-score": -0.129}
{"Oligonucleotide": "GACCAGTC", "E-score": -0.309}
{"Oligonucleotide": "ATCAGCAC", "E-score": 0.0558}
